Results pooled from the literature.
A part holds a random share of what one study measured. ± gives the spread as reported. Values after ≈ are worked out from the molar mass of the structure shown.

Block 1
Organism: SARS-CoV-2 Wuhan spike VSV pseudovirus
Observed: pseudovirus entry
Concentration: concentration not given
Structure (SMILES) | inhibition [%]
Cc1cc2nc3n(c2cc1C)C(O)C=C(C(C)(C)C)S3 (centres unmarked) | 45
CCOC(=O)c1nc(NCCCN2CCN(c3cc(C)ccc3C)CC2)c2ccccc2n1 | 45
COc1ccc(-c2noc(CC3CCN(C(=O)C4(c5ccc(OC)cc5)CC4)CC3)n2)cc1 | 41
O=C(CN(Cc1ccco1)S(=O)(=O)c1ccccc1F)Nc1ccc(N2CCCCC2)cc1 | 44
CC(=O)Oc1cccc(C2OC(c3cccc(Br)c3)=NN2C(C)=O)c1OC(C)=O (centres unmarked) | 39
Cc1ccc(S(=O)(=O)NC(C(=O)NCC(=O)N2CCCc3ccccc32)C(C)C)cc1 (centres unmarked) | 41
CC(NCCC(c1ccccc1)c1ccco1)c1ccc(Cl)cc1 (centres unmarked) | 52
Oc1c(Cl)cc(Cl)cc1C1Nc2cc(Cl)c(C(F)(F)F)cc2N1 (centres unmarked) | 37
Cc1ccc(C(=O)N2CCN(S(=O)(=O)c3ccc4c(c3)NC(=O)C(C)O4)CC2)s1 (centres unmarked) | 38
Cc1cnc(C)c(N2CCN(Cc3ccc(C#CC(C)(C)O)s3)CC2)n1 | 39
CN(CCCNC(=O)c1ccc(Nc2cc(-c3ccc(F)cc3)ncn2)cc1)c1ccccc1 | 45
Cn1c(CN2CCN(C(=O)c3ccc4c(c3)OCO4)CC2)nc2cc(C(=O)N3CCCC3)ccc21 | 37
CN(C)c1ccc(C2NC(=O)c3ccccc3N2)cc1[N+](=O)[O-] (centres unmarked) | 40
Cc1oc(-c2cccs2)nc1CN(C)C1CCCc2ccccc21 (centres unmarked) | 38
CCOc1cccc(N2C(=O)CC(N3CCC(C(N)=O)CC3)C2=O)c1 (centres unmarked) | 37
CCn1nc(C)c([N+](=O)[O-])c1C(=O)NCC(=O)c1ccc(Cl)cc1 | 42
Cc1cn2cc(CNC(=O)c3ccc(C#CC(C)(C)O)o3)nc2s1 | 38
Cc1ccc(C2NC(=O)N(CC(=O)NC3CCCCC3)C3=C2C(=O)OC3)cc1 (centres unmarked) | 38
Cc1onc(-c2c(Cl)cccc2Cl)c1C(=O)On1c(-c2ccccc2)nc2ccccc2c1=O | 44
COC[C@@H]1CN(C(=O)c2cc(C3CC3)[nH]n2)C[C@H]1c1nc(C2CC2)no1 | 40
CCOC(=O)C1CCN(S(=O)(=O)c2ccc3c(c2)N(C(C)=O)CCCS3)CC1 | 36
CCc1nc(-c2ccc(N3CCN(C(=O)Cc4ccc(OC)c(OC)c4)CC3)cc2)no1 | 37
CC(C)CC(=O)N1C2CCC1c1cnc(-c3ccc(F)cc3)nc1C2 (centres unmarked) | 45
CC(NCc1ccccc1)C(=O)NCC(=O)N1CCCc2ccccc21 (centres unmarked) | 52
Cc1csc(NC(=O)c2cn(-c3ccc(-c4noc(C5CC5)n4)cc3)nc2C)n1 | 38

Other studies, line by line
rep papain-like protease: Replicase polyprotein 1ab, papain-like protease (rep, Severe acute respiratory syndrome coronavirus 2, UniProt P0DTD1)
rep main protease: Replicase polyprotein 1ab, main protease (rep, Severe acute respiratory syndrome coronavirus 2, UniProt P0DTD1)
rep nsp14: Replicase polyprotein 1ab, nsp14 (rep, Severe acute respiratory syndrome coronavirus 2, UniProt P0DTD1)
Matrix protein 2 S31N: Matrix protein 2 (Influenza A virus, UniProt P0DOF5, S31N)
SMILES | target or system | assay | system | setting | scale | quantity | result
O=C(O)C1(c2ccc(-c3ccc(Cl)c(Cl)c3)c(F)c2)CC1 | rep papain-like protease |  |  | concentration not given, C111S mutant | baseline: positive control | activity | 18%
CC#CCn1c(N2CCC[C@@H](N)C2)nc2c1c(=O)n(Cc1nc(C)c3ccccc3n1)c(=O)n2C | SARS-CoV-2 | viral replication | Vero E6, B.1.617.2 (Delta) | 48 h |  | IC50 | 2320 nM
O=C1c2c(O)c(=O)ccn2N([C@@H]2c3ccccc3SCc3c2ccc(F)c3F)[C@@H]2COCCN12 | influenza A(H1N1)pdm09 virus | plaque reduction | rg-A/California/04/2009 PA-I38T |  |  | EC50 | 13.7 ± 0.71 nM
O=c1[nH]cnc2c([C@@H]3N[C@H](CO)[C@@H](O)[C@H]3O)c[nH]c12 | SARS-CoV-2 | cytopathic effect | Vero C1008, Omicron BA.1 | 48 h |  | IC100 | 1.58 µM
CCC(CC)COC(=O)[C@H](C)N[P@](=O)(OC[C@H]1O[C@@](C#N)(c2ccc3c(N)ncnn23)[C@H](O)[C@@H]1O)Oc1ccccc1 | SARS-CoV-2 Omicron | viral replication | Calu-3 |  |  | EC90 | 400 ± 100 nM
CCCCCCC#Cc1cncc(-c2nnc(SCc3cc([N+](=O)[O-])cc([N+](=O)[O-])c3)n2C)c1 | Mycobacterium tuberculosis | MABA | Erdman M3 FbiC P367S mutant |  |  | IC50 | > 5000 nM
COc1ccc(-c2cc(=O)c3c(O)c(OC)c(OC)cc3o2)cc1 | rep main protease | protease activity, inhibitor, FRET |  | 50 µM |  | inhibition | -29.8%
CC(C)(C)[C@H](NC(=O)C(F)(F)F)C(=O)N1C[C@H]2[C@@H]([C@H]1C(=O)N[C@H](C#N)C[C@@H]1CCNC1=O)C2(C)C | SARS-CoV-2 | viral replication, replicon | A5328S Mpro cleavage-site mutant |  |  | EC50 | 8 nM
O=C(NC1CCN(c2ncnc3[nH]cnc23)CC1)c1cccc(S(=O)(=O)N2CCCC2)c1 | rep nsp14 | NSP14 enzyme activity, inhibitor |  | 50 µM |  | inhibition | 83.2%
CN(C)CCn1c(C(=O)N2CCN(c3ccccc3Cl)CC2)c(C(c2ccc(O)cc2)c2ccc(O)cc2)c2ccccc21 | SARS-CoV-2 | viral replication | Huh-7-ACE2, USA-WA1/2020 | 24 h |  | EC50 | 410 nM
CCC/C=C/C/C=C/C=C/C=N/NN=O | Severe acute respiratory syndrome coronavirus 2 | viral replication, inhibitor | Vero C1008 |  |  | IC50 | ~20000 nM
CNCC12CC3CC(CC1C3)C2 | Matrix protein 2 S31N |  |  | concentration not given, pH 5.5, cell-based |  | inhibition | 0%
CC(=O)OCCN1C(=O)c2c(C)nc3ccc(S(=O)(=O)N4CCOCC4)cc3c2C1=O | rep papain-like protease |  |  | concentration not given, C111S mutant | baseline: positive control | activity | 19.6%
CO[C@H]1/C=C/O[C@@]2(C)Oc3c(C)c(O)c4c(O)c(c(/C=N/N5CCN(C)CC5)c(O)c4c3C2=O)NC(=O)/C(C)=C\C=C\[C@H](C)[C@H](O)[C@@H](C)[C@@H](O)[C@@H](C)[C@H](OC(C)=O)[C@@H]1C | Mycobacterium tuberculosis |  | H37Rv mc2-6206 MmpL3 G253E |  |  | MIC80 | 0.076 µM (≈ 0.0625 µg/mL)
NC12CC3CC(CC(C3)C1)C2 | Matrix protein 2 S31N |  |  | concentration not given, pH 5.5, cell-based |  | inhibition | 35.6 ± 1.5%
CCc1cc(=O)c2c(OCC(O)CN3CCCCC3)c3ccoc3c(OC)c2o1 (centres unmarked) | Mycobacterium tuberculosis | Alamar blue | 22/22, SIRE and linezolid resistant | 21 days, 37 °C |  | MIC | 32 µg/mL (≈ 79.7 µM)
N#C[C@@]1(n2ccc(N)nc2=O)O[C@H](CO)[C@@H](O)[C@H]1O | SARS-CoV-2 | viral replication | Vero, Alpha |  |  | EC50 | 600 ± 10 nM
O=C(NC1CCN(c2ncnc3[nH]cnc23)CC1)c1cccc(S(=O)(=O)Nc2ccccc2)c1 | rep nsp14 | enzyme activity | SARS-CoV-2 | concentration not given |  | inhibition | 50.1%
COc1ccc(-c2cc(=O)c3c(OC)c(O)c(O)cc3o2)cc1 | rep main protease | protease activity, inhibitor, FRET |  | 50 µM |  | inhibition | 79.9%
CCC(CC)[C@H](NC(C)=O)[C@@H]1[C@H](O)[C@@H](C(=O)O)C[C@H]1N=C(N)N | neuraminidase (Influenza B virus, UniProt C0LT34, I221T) |  |  |  |  | IC50 | 9.9 ± 0.9 nM
CC[C@@H](CO)NCCN[C@@H](CC)CO | Mycobacterium tuberculosis | Alamar blue | 22/22, SIRE and linezolid resistant | 21 days, 37 °C |  | MIC | 4 µg/mL (≈ 19.6 µM)
CC(C)(O)CNc1ncc(-c2ccnc(Nc3ccnc(Cl)c3)n2)c(CC2CC2)n1 | SARS-CoV-2 |  | Vero C1008 |  |  | IC50 | < 600 nM
CC(C)[C@H](NC(=O)[C@H](CCCNC(=N)N)NC(=O)N[C@@H](Cc1ccccc1)C(=O)O)C(=O)N[C@H](C=O)CCCNC(=N)N | Severe acute respiratory syndrome coronavirus 2 | viral entry, inhibitor | A549-hACE2-TMPRSS2 | pseudovirus |  | EC50 | > 50000 nM
N[C@@H](CC(=O)N1CCn2c(nnc2C(F)(F)F)C1)Cc1cc(F)c(F)cc1F | SARS-CoV-2 | viral replication | Vero E6, B.1.351 (Beta) | 48 h |  | IC50 | 1650 nM
COc1nc(N)nc2c1ncn2[C@@H]1O[C@H](CO)[C@@H](O)[C@@H]1O | SARS-CoV-2 | infectious virus yield | Vero C1008, Omicron BA.1 | 48 h |  | EC50 | 1670 ± 80 nM
